{"data": "Results of several laboratories", "cyp121": "Mycocyclosin synthase (cyp121, Mycobacterium tuberculosis, UniProt P9WPP7)", "hly": "hly (Listeria monocytogenes, UniProt P13128)", "OPRM1 with beta-arrestin-2": "Mu-type opioid receptor, with beta-arrestin-2 (OPRM1, Homo sapiens, UniProt P35372)", "OPRK1": "Kappa-type opioid receptor (OPRK1, Homo sapiens, UniProt P41145)", "LYN Y508F": "Tyrosine-protein kinase Lyn (LYN, Homo sapiens, UniProt P07948, Y508F)", "note": "Compare with care: the assays were run in different laboratories. ± marks the error that the study gave."}
{"Compound": "c1ccc(-c2csc(Cn3ccnc3)c2)cc1", "target": "cyp121", "test": "binding", "quantity": "Kd", "result": "28300 ± 3700 nM"}
{"Compound": "CC(=O)NC1C(O)CC(OC(CO)C(O)C2OC(OC(CO)C(O)C3OC(OC4C(O)C(OC5C(CO)OC(O)C(O)C5O)OC(CO)C4OC4OC(CO)C(O)C(OC5OC(CO)C(O)C(O)C5O)C4NC(C)=O)(C(=O)O)CC(O)C3NC(C)=O)(C(=O)O)CC(O)C2NC(C)=O)(C(=O)O)OC1C(O)C(O)CO (stereo not drawn)", "target": "hly", "test": "binding", "setting": "pH 5.5", "quantity": "Kd", "result": "2.3 nM"}
{"Compound": "COC(=O)[C@@H]1C=C(OC(=O)c2cccc(O)c2)C(=O)[C@H]2[C@@]1(C)CC[C@H]1C(=O)O[C@H](c3ccoc3)C[C@]21C", "target": "OPRM1 with beta-arrestin-2", "test": "β-arrestin-2 recruitment, agonist, PathHunter", "test system": "CHO-K1", "quantity": "EC50", "result": "40 ± 10 nM"}
{"Compound": "Cn1c(=O)cc(OCc2cn(C3C[C@H]4CC[C@@H](C3)[N+]4(C)C)nn2)c2ccccc21 (stereo partly drawn)", "target": "Soluble acetylcholine receptor (Aplysia californica, UniProt Q8WSF8, Y72W)", "test": "binding, scintillation proximity", "setting": "added: [3H]epibatidine", "quantity": "Kd", "result": "17 ± 4.8 nM"}
{"Compound": "COC(=O)[C@@H]1C=C(OC(=O)c2ccc(O)c(F)c2)C(=O)[C@H]2[C@@]1(C)CC[C@H]1C(=O)O[C@H](c3ccoc3)C[C@]21C", "target": "OPRM1 with beta-arrestin-2", "test": "β-arrestin-2 recruitment, agonist, PathHunter", "test system": "CHO-K1", "quantity": "EC50", "result": "24 ± 3 nM"}
{"Compound": "Fc1ccc(-c2ccc(Cn3ccnc3)s2)cc1", "target": "cyp121", "test": "binding", "quantity": "Kd", "result": "9100 ± 1500 nM"}
{"Compound": "COC(=O)[C@@H]1C=C(OC(=O)c2ccc(O)c(Br)c2)C(=O)[C@H]2[C@@]1(C)CC[C@H]1C(=O)O[C@H](c3ccoc3)C[C@]21C", "target": "OPRK1", "test": "forskolin-induced cAMP inhibition, agonist", "test system": "CHO-K1 expressing human KOR", "quantity": "EC50", "result": "> 10000 nM"}
{"Compound": "Nc1ncnc2c1c(-c1cnc3[nH]ccc3c1)nn2C1CCCC1", "target": "LYN Y508F", "test": "inhibitor", "quantity": "Ki", "result": "35 nM"}
{"Compound": "CN1CC[C@]23c4c5ccc(O)c4O[C@H]2c2ncc(-c4ccc(Cl)cc4)cc2C[C@@]3(OCCCc2ccccc2)[C@H]1C5", "target": "Delta-type opioid receptor (OPRD1, Homo sapiens, UniProt P41143)", "test": "agonist", "test system": "CHO membranes", "quantity": "EC50", "result": "1.3 ± 0.1 nM"}
{"Compound": "CC(c1ccc2c(c1)Cc1ccccc1-2)n1ccnc1 (stereo not drawn)", "target": "cyp121", "test": "binding", "quantity": "Kd", "result": "4800 ± 780 nM"}
{"Compound": "COC(=O)[C@@H]1C=C(OC(=O)c2cccc(CO)c2)C(=O)[C@H]2[C@@]1(C)CC[C@H]1C(=O)O[C@H](c3ccoc3)C[C@]21C", "target": "OPRK1", "test": "forskolin-induced cAMP inhibition, agonist", "test system": "CHO-K1 expressing human KOR", "quantity": "EC50", "result": "> 10000 nM"}
{"Compound": "CCC(c1ccc(-c2ccc3ccccc3c2)cc1)n1ccnc1 (stereo not drawn)", "target": "cyp121", "test": "binding", "quantity": "Kd", "result": "1400 ± 200 nM"}
{"Compound": "CC(=O)NC1C(O)CC(OC(CO)C(O)C2OC(OC(CO)C(O)C3OC(OC4C(O)C(CO)OC(OC5C(CO)OC(O)C(O)C5O)C4O)(C(=O)O)CC(O)C3NC(C)=O)(C(=O)O)CC(O)C2NC(C)=O)(C(=O)O)OC1C(O)C(O)CO (stereo not drawn)", "target": "hly", "test": "binding", "setting": "pH 7", "quantity": "Kd", "result": "4.3 nM"}
{"Compound": "CCOC(=O)c1cncn1C(C)c1c(F)c(F)c(F)c(F)c1F (racemic)", "target": "GABA-A receptor alpha-1/beta-3, with gamma-2 subunit (GABRA1/GABRB3, Homo sapiens, UniProt P14867+P28472, L291T)", "test": "ion current, agonist, two-electrode voltage clamp", "test system": "Xenopus laevis oocytes", "how to read": "relative to: 100 µM GABA", "quantity": "EC50", "result": "7600 ± 600 nM"}
{"Compound": "CC(C)n1nc(-c2ccc3c(c2)OCO3)c2c(N)ncnc21", "target": "Tyrosine-protein kinase Fyn (FYN, Homo sapiens, UniProt P06241, G531I/P530I/Q529E)", "test": "inhibitor", "quantity": "Ki", "result": "740 nM"}
{"Compound": "NC(=O)c1ccc(Oc2ccc(Cl)cc2Cl)c(O)c1", "target": "Enoyl-[acyl-carrier-protein] reductase [NADH] (inhA, Mycobacterium tuberculosis, UniProt P9WGR1)", "test": "inhibitor", "quantity": "IC50", "result": "> 10000 nM"}
{"Compound": "COC(=O)[C@@H]1C=C(OC(=O)c2ccc(O)cc2)C(=O)[C@H]2[C@@]1(C)CC[C@H]1C(=O)O[C@H](c3ccoc3)C[C@]21C", "target": "OPRK1", "test": "forskolin-induced cAMP inhibition, agonist", "test system": "CHO-K1 expressing human KOR", "quantity": "EC50", "result": "> 10000 nM"}
{"Compound": "CCC(c1ccc(-c2cscc2C)cc1)n1ccnc1 (stereo not drawn)", "target": "cyp121", "test": "binding", "quantity": "Kd", "result": "9400 ± 660 nM"}
{"Compound": "CC(C)n1nc(-c2cccc(O)c2)c2c(N)ncnc21", "target": "LYN Y508F", "test": "inhibitor", "quantity": "Ki", "result": "320 nM"}
{"Compound": "O=C(NS(=O)(=O)OC[C@H]1O[C@@H](n2cnc3c(NCc4ccccc4)ncnc32)[C@H](O)[C@@H]1O)c1ccccc1O", "target": "Vibriobactin-specific 2,3-dihydroxybenzoate-AMP ligase (vibE, Vibrio cholerae serotype O1, UniProt O07899)", "test": "binding", "test system": "Vibrio cholerae", "quantity": "Kd", "result": "8.83 ± 1.29 nM"}
{"Compound": "c1ccc2c(c1)Cc1cc(Cn3ccnc3)ccc1-2", "target": "cyp121", "test": "binding", "quantity": "Kd", "result": "6000 ± 1100 nM"}
{"Compound": "COC(=O)[C@@H]1C=C(OC(=O)CCc2ccccc2)C(=O)[C@H]2[C@@]1(C)CC[C@H]1C(=O)O[C@H](c3ccoc3)C[C@]21C", "target": "Mu-type opioid receptor (OPRM1, Homo sapiens, UniProt P35372)", "test": "forskolin-induced cAMP inhibition, agonist", "test system": "CHO-K1 expressing human MOR", "quantity": "EC50", "result": "400 ± 100 nM"}
{"Compound": "CCC(c1ccc(-c2ccc(O)cc2)cc1)n1ccnc1 (stereo not drawn)", "target": "cyp121", "test": "binding", "quantity": "Kd", "result": "1800 ± 320 nM"}
{"Compound": "COC(=O)[C@@H]1C=C(OC(=O)Cc2ccccc2)C(=O)[C@H]2[C@@]1(C)CC[C@H]1C(=O)O[C@H](c3ccoc3)C[C@]21C", "target": "OPRK1", "test": "forskolin-induced cAMP inhibition, agonist", "test system": "CHO-K1 expressing human KOR", "quantity": "EC50", "result": "187 ± 29 nM"}
{"Compound": "Cc1ccc(CCN)cc1", "target": "Sodium-dependent dopamine transporter (Slc6a3, Rattus norvegicus, UniProt P23977)", "test": "dopamine release, releaser", "test system": "rat brain synaptosomes", "quantity": "EC50", "result": "271 ± 17 nM"}
{"Compound": "COC(=O)[C@@H]1C=C(OC(=O)c2ccc3occc3c2)C(=O)[C@H]2[C@@]1(C)CC[C@H]1C(=O)O[C@H](c3ccoc3)C[C@]21C", "target": "OPRK1", "test": "forskolin-induced cAMP inhibition, agonist", "test system": "CHO-K1 expressing human KOR", "quantity": "EC50", "result": "> 10000 nM"}
{"Compound": "CCC(c1ccc(-c2cc(F)ccc2F)cc1)n1ccnc1 (stereo not drawn)", "target": "cyp121", "test": "binding", "quantity": "Kd", "result": "7500 ± 860 nM"}
{"note": "Excerpt of the above:"}
{"Compound": "CCOC(=O)c1cncn1C(C)c1c(F)c(F)c(F)c(F)c1F (racemic)", "target": "GABA-A receptor alpha-1/beta-3, with gamma-2 subunit (GABRA1/GABRB3, Homo sapiens, UniProt P14867+P28472, L291T)", "test": "ion current, agonist, two-electrode voltage clamp", "test system": "Xenopus laevis oocytes", "how to read": "relative to: 100 µM GABA", "quantity": "EC50", "result": "7600 ± 600 nM"}
{"Compound": "CC(C)n1nc(-c2ccc3c(c2)OCO3)c2c(N)ncnc21", "target": "Tyrosine-protein kinase Fyn (FYN, Homo sapiens, UniProt P06241, G531I/P530I/Q529E)", "test": "inhibitor", "quantity": "Ki", "result": "740 nM"}
{"Compound": "NC(=O)c1ccc(Oc2ccc(Cl)cc2Cl)c(O)c1", "target": "Enoyl-[acyl-carrier-protein] reductase [NADH] (inhA, Mycobacterium tuberculosis, UniProt P9WGR1)", "test": "inhibitor", "quantity": "IC50", "result": "> 10000 nM"}
{"Compound": "COC(=O)[C@@H]1C=C(OC(=O)c2ccc(O)cc2)C(=O)[C@H]2[C@@]1(C)CC[C@H]1C(=O)O[C@H](c3ccoc3)C[C@]21C", "target": "OPRK1", "test": "forskolin-induced cAMP inhibition, agonist", "test system": "CHO-K1 expressing human KOR", "quantity": "EC50", "result": "> 10000 nM"}
